Measurements of several laboratories.
Every numbered part comes from another study and shows a few of its results, in no order. Substitutions count along the parent as printed.
Chain of UniProt O75417 (whole entry, unmodified, looked up): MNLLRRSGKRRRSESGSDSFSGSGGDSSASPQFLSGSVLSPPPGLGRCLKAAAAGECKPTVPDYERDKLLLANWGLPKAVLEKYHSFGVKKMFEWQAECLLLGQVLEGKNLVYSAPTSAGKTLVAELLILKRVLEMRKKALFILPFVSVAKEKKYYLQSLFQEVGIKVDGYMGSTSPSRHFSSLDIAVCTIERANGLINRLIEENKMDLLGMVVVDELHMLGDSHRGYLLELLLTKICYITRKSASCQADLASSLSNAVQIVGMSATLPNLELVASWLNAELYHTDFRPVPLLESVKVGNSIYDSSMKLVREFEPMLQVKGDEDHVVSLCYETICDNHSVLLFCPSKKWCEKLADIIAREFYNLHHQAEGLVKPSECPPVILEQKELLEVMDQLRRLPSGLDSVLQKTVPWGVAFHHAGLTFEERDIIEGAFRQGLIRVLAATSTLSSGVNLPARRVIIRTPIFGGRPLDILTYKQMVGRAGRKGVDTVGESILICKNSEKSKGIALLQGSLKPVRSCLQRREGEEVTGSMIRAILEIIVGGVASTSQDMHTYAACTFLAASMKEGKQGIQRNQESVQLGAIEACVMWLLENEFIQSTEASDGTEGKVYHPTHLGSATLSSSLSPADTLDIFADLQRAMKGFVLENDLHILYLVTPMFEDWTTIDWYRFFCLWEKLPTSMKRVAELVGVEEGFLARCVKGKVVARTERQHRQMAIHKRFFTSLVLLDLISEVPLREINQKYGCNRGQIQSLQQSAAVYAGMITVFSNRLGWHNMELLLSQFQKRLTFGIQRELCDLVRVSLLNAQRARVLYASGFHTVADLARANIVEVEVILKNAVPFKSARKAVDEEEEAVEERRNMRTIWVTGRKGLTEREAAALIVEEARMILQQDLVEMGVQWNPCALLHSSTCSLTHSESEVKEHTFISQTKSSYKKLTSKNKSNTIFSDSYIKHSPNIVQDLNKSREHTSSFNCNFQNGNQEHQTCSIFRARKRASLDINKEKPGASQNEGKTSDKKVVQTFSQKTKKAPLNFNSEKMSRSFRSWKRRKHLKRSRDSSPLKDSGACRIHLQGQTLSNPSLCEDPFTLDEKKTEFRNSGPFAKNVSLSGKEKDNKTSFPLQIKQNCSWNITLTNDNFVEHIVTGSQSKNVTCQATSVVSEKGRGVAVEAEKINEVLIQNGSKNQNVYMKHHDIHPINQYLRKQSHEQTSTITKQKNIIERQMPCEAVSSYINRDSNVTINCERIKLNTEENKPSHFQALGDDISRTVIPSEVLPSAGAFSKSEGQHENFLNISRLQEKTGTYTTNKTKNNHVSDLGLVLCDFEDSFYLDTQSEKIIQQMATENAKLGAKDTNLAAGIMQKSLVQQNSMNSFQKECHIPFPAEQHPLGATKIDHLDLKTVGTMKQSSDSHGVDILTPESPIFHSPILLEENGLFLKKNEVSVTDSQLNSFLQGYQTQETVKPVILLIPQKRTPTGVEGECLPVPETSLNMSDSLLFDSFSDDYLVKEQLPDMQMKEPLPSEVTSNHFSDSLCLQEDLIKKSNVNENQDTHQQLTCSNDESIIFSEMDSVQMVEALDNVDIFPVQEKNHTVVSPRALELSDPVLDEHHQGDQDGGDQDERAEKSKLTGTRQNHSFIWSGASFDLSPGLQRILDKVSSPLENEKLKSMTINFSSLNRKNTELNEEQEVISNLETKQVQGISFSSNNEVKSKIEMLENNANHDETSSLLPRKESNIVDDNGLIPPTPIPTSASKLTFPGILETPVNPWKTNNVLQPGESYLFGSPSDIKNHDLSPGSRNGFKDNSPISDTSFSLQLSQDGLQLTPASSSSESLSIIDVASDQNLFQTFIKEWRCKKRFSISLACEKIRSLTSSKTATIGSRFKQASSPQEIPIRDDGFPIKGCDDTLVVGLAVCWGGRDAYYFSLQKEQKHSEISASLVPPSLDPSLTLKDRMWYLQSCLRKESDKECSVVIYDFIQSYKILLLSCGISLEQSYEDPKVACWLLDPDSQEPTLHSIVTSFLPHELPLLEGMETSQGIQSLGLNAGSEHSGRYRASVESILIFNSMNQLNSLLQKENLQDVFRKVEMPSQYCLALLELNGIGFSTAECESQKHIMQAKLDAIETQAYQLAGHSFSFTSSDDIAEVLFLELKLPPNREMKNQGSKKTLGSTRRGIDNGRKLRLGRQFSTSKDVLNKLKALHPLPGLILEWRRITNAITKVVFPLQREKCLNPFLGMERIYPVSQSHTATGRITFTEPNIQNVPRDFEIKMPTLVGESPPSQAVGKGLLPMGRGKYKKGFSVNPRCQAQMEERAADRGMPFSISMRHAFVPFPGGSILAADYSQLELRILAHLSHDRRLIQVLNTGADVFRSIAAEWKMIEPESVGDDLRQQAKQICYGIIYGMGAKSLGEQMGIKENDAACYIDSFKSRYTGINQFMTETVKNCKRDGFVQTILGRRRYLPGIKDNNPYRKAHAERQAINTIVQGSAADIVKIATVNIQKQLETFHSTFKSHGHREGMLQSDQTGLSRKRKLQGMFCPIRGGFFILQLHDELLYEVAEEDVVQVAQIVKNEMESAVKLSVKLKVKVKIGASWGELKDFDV

Series 1
Target: CCNB3, cyclin fold, Cln2 fusion (human)
Method: yeast growth competition, sequencing
Sample: yeast
Setting: strong parent motif
Reference: not given
Direction: higher = stronger binding
Endpoint: normalised enrichment score
Parent: viral docking peptide; TSVRRALFTGGSD
Change = TSVRRALFLGGSD [T9L]; value = 1.55
Change = TMVRRALFTGGSD [S2M]; value = 1.56
Change = TSVRRALFCGGSD [T9C]; value = 1.42
Change = TSQRRALFTGGSD [V3Q]; value = -0.238
Change = TSVRRALFTGGMD [S12M]; value = 1.73
Change = TSVRRILFTGGSD [A6I]; value = 3.25
Change = TSVRRAQFTGGSD [L7Q]; value = 0.183
Change = TSVRRALFTGVSD [G11V]; value = 2.01
Change = TSVRRALFSGGSD [T9S]; value = 1.77
Change = TSVRRALFTDGSD [G10D]; value = 2.66
Change = TSVRRALFTGTSD [G11T]; value = 2.43
Change = TSVRRNLFTGGSD [A6N]; value = 2.15
Change = TSVRRAEFTGGSD [L7E]; value = -0.0298
Change = TSVRRALFTVGSD [G10V]; value = 1.54
Change = TSVRRALFTMGSD [G10M]; value = 1.42
Change = TSMRRALFTGGSD [V3M]; value = 0.337
Change = TSVRRALGTGGSD [F8G]; value = 0.201
Change = TSVRRALFTGMSD [G11M]; value = 1.77
Change = TSVRRYLFTGGSD [A6Y]; value = 0.212
Change = TIVRRALFTGGSD [S2I]; value = 0.987
Change = TSVRRALWTGGSD [F8W]; value = 0.417
Change = TSVRRALFTAGSD [G10A]; value = 1.85
Change = TSVRRALKTGGSD [F8K]; value = -0.0296
Change = TSVRRALHTGGSD [F8H]; value = 0.0655
Change = TSVRIALFTGGSD [R5I]; value = 0.546

Series 2
Target: CEP164, C-terminal peptide (human)
Method: DHFR complementation, deep sequencing
Sample: yeast
Setting: single substitutions, model-inferred values
Reference: wild type
Direction: higher = weaker binding
Endpoint: binding free energy change
Parent: PDZK1, PDZ domain 2 (human); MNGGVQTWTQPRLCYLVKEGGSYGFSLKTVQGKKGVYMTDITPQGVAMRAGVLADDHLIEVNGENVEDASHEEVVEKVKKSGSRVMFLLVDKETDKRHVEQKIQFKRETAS; partner HNRVKVYRF
Change = M1A; value = -0.807 kJ/mol
Change = G20V; value = 2.43 kJ/mol
Change = V78G; value = 7.36 kJ/mol
Change = K102I; value = 0.156 kJ/mol
Change = V5E; value = -0.31 kJ/mol
Change = D40F; value = 2.77 kJ/mol
Change = T42S; value = 1.5 kJ/mol
Change = G82Q; value = 2.61 kJ/mol

Series 3
Target: Hepatocyte nuclear factor 3-alpha (Foxa1, Mus musculus, UniProt P35582, residues 1-468, full length assumed)
Method: EMSA with sequencing
Form: double-stranded DNA, one strand shown
Sample: in vitro
Concentration: 10 and 20 nM
Setting: whole designed probe, mean of two concentrations, ends assumed
Reference: negative control set to 0
Direction: higher = stronger binding
Endpoint: normalised bound fraction
Target sequence (chain): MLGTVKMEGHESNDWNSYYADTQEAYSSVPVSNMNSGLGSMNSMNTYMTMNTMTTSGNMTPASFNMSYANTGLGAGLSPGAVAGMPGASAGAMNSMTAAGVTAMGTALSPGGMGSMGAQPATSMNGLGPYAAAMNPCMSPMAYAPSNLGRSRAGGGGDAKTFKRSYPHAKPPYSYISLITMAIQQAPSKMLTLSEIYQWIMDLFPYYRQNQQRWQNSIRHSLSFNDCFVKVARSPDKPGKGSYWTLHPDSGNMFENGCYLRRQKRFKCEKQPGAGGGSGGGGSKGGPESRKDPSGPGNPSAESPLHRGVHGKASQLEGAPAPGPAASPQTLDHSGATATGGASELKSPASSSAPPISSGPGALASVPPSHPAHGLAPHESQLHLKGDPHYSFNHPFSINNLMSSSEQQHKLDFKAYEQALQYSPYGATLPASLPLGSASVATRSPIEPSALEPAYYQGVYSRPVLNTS
Sequence = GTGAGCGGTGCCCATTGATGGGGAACGGAGCTAAAAATCAGCTTGTCTGAAAATTCTCATAAAATTTGCAAAACCCTGAAACTGAAAGTTCTGCAGTGCAGAGGCATTTCCATGCAATGTAATCTAGGTCAGTTAGGGCCTCTTGGAACTATGCTGGGATGGGGGCCACTGTCAGTCAAGCTACTGTTGGGCTTGGGATGAGGATGGAGGGAACTGACCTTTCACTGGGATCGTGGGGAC; value = -0.0861 ratio
Sequence = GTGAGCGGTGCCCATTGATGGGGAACATATTCAGCAGAGTGGTCCTAGGTAGAACATTCTGTGTCAAAATATCAAAAGGCATTGACAAGAGAAATCGACAGAGAATTAGGTTAGCAGAGTAATCTGGTATTCTGTAACCTTCTCAAGTGCTGTGCCTGCTTAGGGAAATACTATTCTTATAAAGTCTTATTCTTCCGCATAATGAATAGTCATTTCCACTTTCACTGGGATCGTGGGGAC; value = -0.0766 ratio
Sequence = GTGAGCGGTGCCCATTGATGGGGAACTTGGAGACTAACAGAAGGAATATATATTTTTTGAAGAGAAAAAAAACACAATTATCTTATTTTTGTCCTGGCTCTAACTTTGGCCAGTGTCAAAGTAATCTGGATAGATGGCTTCTCCATGCTAAATGATGCTAGATTAACATTGAAAGAAAAATTATAGTGATCAGTTATTTCAGTTTCAAATGTCCCAAATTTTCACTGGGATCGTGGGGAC; value = 0.055 ratio
Sequence = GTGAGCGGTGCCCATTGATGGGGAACGCATACCAGTTGATGCCCCAGCCCTCCCTCCCAGGTAGATTTTGAAATCCTCTAGATGTGGAAAAATCTAAACATATTGTGCAAATTACAGAGTAATCTAGGGGAGTTGAGGATTTCATAAGCATGTTCTCCACTTTTTTTTCCCTTTTCCTCTTCCATCTTGGGAGTAGAAGAAAACAGATTCGGTTTACCTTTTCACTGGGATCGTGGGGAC; value = -0.0411 ratio
Sequence = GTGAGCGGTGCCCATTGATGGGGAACAGGTGAATTGGCTGCTTCCATCCTGGCTTGGAACTTCAGACATAGAAGCCTTGGGACTTTCTCAGGACTTTCTCCAGACTGACTCATGCTGCTTGTTTGCTGAATCTCTGTGGATCACGTGACCTTAGCCAGGGATGTTGGTGAAACTGTGTGTTGGTCTAGGTACCTAGCCCATGCTAGGTGCTCATCGAATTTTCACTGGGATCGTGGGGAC; value = 0.0559 ratio
Sequence = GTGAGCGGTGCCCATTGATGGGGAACGCTTTAAATATCAAGCCTAAGCTAATGTAAGCAAAGGATATTGTTAGTAGTAGCAAATTAGTATTAGTAGTAGCAAATTAATTAATTCAGTGAAGATTACTAAATATCCTCAATTATGTTATTTGTTAATTTGAAGTTTCTGTAAGAAAGAGAATACATGAACTTGAATTTCACAAATACCTGTGAATTGCACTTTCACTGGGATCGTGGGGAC; value = 0.111 ratio
Sequence = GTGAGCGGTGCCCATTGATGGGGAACTTTAAACTTTTGTAAAAATGTTCAAAGAGAATCTGTTGTTAGAAGTTTAACATTCTGATTTAACTGTTTTGAATACGAAAAATACAAACTCAAAGTAAACATCTAAAATATAAGGCAAATCTATCCATATAGAAAAGGAATAAGAAGGTACTGACCAATGAAGTTGAAACAACACTGTCATATTAATCTCAAATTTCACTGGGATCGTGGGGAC; value = 0.347 ratio
Sequence = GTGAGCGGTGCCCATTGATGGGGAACATCTTCCCCCTCTTCCTTGCCCCACCAGCTCACCTTCCCGGGTTATTTGCAGATAGGAAAATAAATAAAGCCGGCATTCGTTAACCCTCTTCTCAAACGGTGCGCTGTTTGCTCTGGATGAATCATGGTCCTTTGGCGACGCCAGGCTCCGGGAGAGCAAAGCACCGTGTCAGGGCCATGATCCGGGGTGGCCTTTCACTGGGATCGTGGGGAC; value = 0.376 ratio

Series 4
Target: NFE2L2, bZIP domain (human)
Method: DHFR protein complementation
Sample: yeast
Setting: single substitutions, most at no-binding floor
Reference: wild-type JUN-FOS pair
Direction: higher = stronger binding
Endpoint: binding fitness
Parent: JUN, bZIP domain (human); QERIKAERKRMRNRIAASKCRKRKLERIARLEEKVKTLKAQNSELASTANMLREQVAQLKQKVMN; partner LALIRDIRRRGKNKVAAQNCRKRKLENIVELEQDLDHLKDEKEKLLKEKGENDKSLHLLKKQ
Change = E33W; value = -1.21 natural log
Change = L52G; value = -1.52 natural log
Change = L45S; value = -1.44 natural log
Change = A49V; value = -1.34 natural log
Change = L31M; value = -1.55 natural log
Change = I28R; value = -1.29 natural log
Change = E32T; value = -1.39 natural log
Change = E32R; value = -1.27 natural log

Mixed results
SMILES = CC(C)NP(=O)(NC(C)C)OP(=O)(NC(C)C)NC(C)C; target = DNA polymerase theta, ATPase domain (POLQ, Homo sapiens, UniProt O75417); effect on = enzyme activity; action = inhibitor; concentration = 77 µM; reference = untreated; endpoint = remaining activity; value = 97.1%

Excerpt of the above (series 2):
Change = M1A; value = -0.807 kJ/mol
Change = G20V; value = 2.43 kJ/mol
Change = V78G; value = 7.36 kJ/mol
Change = K102I; value = 0.156 kJ/mol
Change = V5E; value = -0.31 kJ/mol
Change = D40F; value = 2.77 kJ/mol
Change = T42S; value = 1.5 kJ/mol
